Measurements of several laboratories.
Organism: Acinetobacter baumannii

SMILES | test | system | setting | MIC
c1ccc2[nH]c(CNCC34CC5CC(CC(C5)C3)C4)nc2c1 |  | ATCC 17961 |  | > 128 µg/mL
O=C(N[C@H](CO)[C@H](O)c1ccc([N+](=O)[O-])cc1)C(Cl)Cl | broth microdilution | NCTC 13424 | 20 h, 5% CO2 | 64 µg/mL
c1ccc(OCCn2c(CNC34CC5CC(CC(C5)C3)C4)nc3ccccc32)cc1 |  | ATCC 17961 |  | > 128 µg/mL
CCc1c(Cl)c(O)c(Cl)c(O)c1C(=O)O[C@H]1[C@H](O)[C@H](OC)[C@H](OC/C2=C\C=C\C[C@H](O)/C(C)=C/[C@H](CC)[C@@H](O[C@@H]3OC(C)(C)[C@@H](OC(=O)C(C)C)[C@H](O)[C@@H]3O)/C(C)=C/C(C)=C/C[C@@H]([C@@H](C)O)OC2=O)O[C@@H]1C | broth microdilution | ATCC 17978 |  | 320 µM
CN(C)[C@@H]1C(O)=C(C(N)=O)C(=O)[C@@]2(O)C(O)=C3C(=O)c4c(O)cccc4[C@@](C)(O)[C@H]3C[C@@H]12 | broth microdilution | NCTC 13424 | 20 h, 5% CO2 | 256 µg/mL
C[C@@H](O)[C@H]1C(=O)N2C(C(=O)O)=C(S[C@@H]3CN[C@H](C(=O)N(C)C)C3)[C@H](C)[C@H]12 | broth microdilution | A1 clinical isolate | 20 h | < 0.5 µg/mL
CC[C@H]1OC(=O)[C@H](C)C(=O)[C@H](C)[C@@H](O[C@@H]2O[C@H](C)C[C@H](N(C)C)[C@H]2O)[C@](C)(OC)C[C@@H](C)C(=O)[C@H](C)[C@H]2N(CCCCn3cnc(-c4cccnc4)c3)C(=O)O[C@]12C | broth microdilution | ATCC 17978 |  | 20 µM
CC1(C)S[C@@H]2[C@H](NC(=O)[C@H](N)c3ccc(O)cc3)C(=O)N2[C@H]1C(=O)O | broth microdilution | BNCC 194496 |  | 8 µg/mL
O=C(N[C@H](CO)[C@H](O)c1ccc([N+](=O)[O-])cc1)C(Cl)Cl | broth microdilution | ATCC 17978 |  | 80 µM
NC[C@H]1O[C@H](O[C@H]2[C@H](O)[C@@H](O[C@H]3O[C@H](CO)[C@@H](O)[C@H](N)[C@H]3O)[C@H](N)C[C@@H]2N)[C@H](N)C[C@@H]1O | broth microdilution | clinical isolate |  | > 200 µM
Cc1cc(Nc2ccc(S(F)(F)(F)(F)F)cc2)n2ccnc2n1 |  | Kelly lung isolate |  | 1.09 µg/mL
CC[C@H]1OC(=O)[C@H](C)[C@@H](O[C@H]2C[C@@](C)(OC)[C@@H](O)[C@H](C)O2)[C@H](C)[C@@H](O[C@@H]2O[C@H](C)C[C@H](N(C)C)[C@H]2O)[C@](C)(OC)C[C@@H](C)C(=O)[C@H](C)[C@@H](O)[C@]1(C)O | broth microdilution | ATCC 17978 |  | 10 µM
CO/N=C(\C(=O)N[C@@H]1C(=O)N2C(C(=O)O)=C(COC(C)=O)CS[C@H]12)c1csc(N)n1 | broth microdilution | NCTC 13424 | 20 h, ambient air | 256 µg/mL
CO[C@H]1/C=C/O[C@@]2(C)Oc3c(C)c(O)c4c(O)c(c(/C=N/N5CCN(C)CC5)c(O)c4c3C2=O)NC(=O)/C(C)=C\C=C\[C@H](C)[C@H](O)[C@@H](C)[C@@H](O)[C@@H](C)[C@H](OC(C)=O)[C@@H]1C | broth microdilution | ATCC 17978 |  | 5 µM
NCC[C@H](O)C(=O)N[C@@H]1C[C@H](N)[C@@H](O[C@H]2O[C@H](CN)[C@@H](O)[C@H](O)[C@H]2O)[C@H](O)[C@H]1O[C@H]1O[C@H](CO)[C@@H](O)[C@H](N)[C@H]1O | broth microdilution | NCTC 13424 | 20 h, ambient air | > 512 µg/mL
COc1ccc2ccc(O)c(/C=N/[C@H]3CCCC[C@H]3/N=C/c3c(O)cccc3F)c2c1 | bacterial growth, broth microdilution | carbapenem-resistant clinical isolate |  | > 40 µM
O=[N+]([O-])c1ccc(O)c2ncccc12 |  | 19606 |  | 1.56 µM
CCN1CCN(C(=O)N[C@@H](C(=O)N[C@@H]2C(=O)N3[C@@H]2SC(C)(C)[C@@H]3C(=O)O)c2ccccc2)C(=O)C1=O | broth microdilution |  | 24 h, 37 °C, clinical isolate | > 400 µM

SMILES | test | system | setting | MIC
C[C@@H](O)[C@H]1C(=O)N2C(C(=O)O)=C(S[C@@H]3CN[C@H](C(=O)N(C)C)C3)[C@H](C)[C@H]12 |  | clinical isolate 1A3 |  | 96 µg/mL
NCCCC[C@H](NC(=O)[C@H](Cc1ccccc1)NC(=O)[C@H](CCC(N)=O)NC(=O)[C@H](Cc1ccccc1)NC(=O)[C@H](CCC(N)=O)NC(=O)[C@@H](N)Cc1ccccc1)C(N)=O | broth microdilution, optical density |  |  | 2080 µM
CCO/N=C(\C(=O)N[C@@H]1C(=O)N2C(C(=O)[O-])=C(Sc3nc(-c4cc[n+](C)cc4)cs3)CS[C@H]12)c1nsc(NP(=O)(O)O)n1 | broth microdilution |  | 24 h, 37 °C, clinical isolate | > 400 µM
C[C@H]1COc2c(N3CCN(C)CC3)c(F)cc3c(=O)c(C(=O)O)cn1c23 | agar dilution | 16-16 |  | 16 µg/mL
CC[C@H]1OC(=O)[C@H](C)[C@@H](O[C@H]2C[C@@](C)(OC)[C@@H](O)[C@H](C)O2)[C@H](C)[C@@H](O[C@@H]2O[C@H](C)C[C@H](N(C)C)[C@H]2O)[C@](C)(O)C[C@@H](C)C(=O)[C@H](C)[C@@H](O)[C@]1(C)O | broth microdilution | ATCC 17978 |  | 20 µM
NC[C@H]1O[C@H](O[C@H]2[C@H](O)[C@@H](O[C@H]3O[C@H](CO)[C@@H](O)[C@H](N)[C@H]3O)[C@H](N)C[C@@H]2N)[C@H](N)C[C@@H]1O | broth microdilution | NCTC 13424 | 20 h, 5% CO2 | > 512 µg/mL
Cc1c(CN(C)C(=O)/C=C/c2cnc3c(c2)CCC(=O)N3)oc2ccccc12 | broth microdilution | KB304 |  | > 32 µg/mL
CC1(C)S[C@@H]2[C@H](NC(=O)[C@H](N)c3ccccc3)C(=O)N2[C@H]1C(=O)O | broth microdilution | ATCC 19606, susceptible | 18 h, 37 °C, dark | > 128 µM
C[C@@H](O)[C@H]1C(=O)N2C(C(=O)O)=C(SCCN=CN)C[C@H]12 | broth microdilution | BNCC 194496 |  | 0.5 µg/mL
CC[C@H](C)CCCCC(=O)N[C@@H](CCN)C(=O)N[C@H](C(=O)N[C@@H](CCN)C(=O)N[C@H]1CCNC(=O)[C@H]([C@@H](C)O)NC(=O)[C@H](CCN)NC(=O)[C@H](CCN)NC(=O)[C@H](CC(C)C)NC(=O)[C@@H](CC(C)C)NC(=O)[C@H](CCN)NC1=O)[C@@H](C)O | broth microdilution | BAA-747, cation-adjusted Mueller-Hinton broth | 18 to 20 h, 37 °C, 0.002% polysorbate 80 | 0.125 µg/mL
Cc1c(CN(C)C(=O)/C=C/c2cnc3c(c2)CC(NC(=O)OC(C)(C)C)C(=O)N3)oc2ccccc12 (stereo not drawn) | broth microdilution | AR-0312 |  | > 32 µg/mL
CN[C@@H]1[C@@H](O[C@H]2O[C@H](CO)[C@@H](N)[C@H](O)[C@H]2O)OC2C[C@@H](N)[C@@H](O[C@H]3[C@H](O)[C@@H](O)[C@H](N)C[C@@H]3N)OC2[C@@H]1O (stereo partly drawn) | broth microdilution | NCTC 13424 | 20 h, 5% CO2 | 8 µg/mL
CN(C)c1ccc2nc3ccc(=[N+](C)C)cc-3sc2c1 | broth microdilution | ATCC 19606, susceptible | 18 h, 37 °C, dark | > 128 µM
Cc1c(CN(C)C(=O)/C=C/c2cnc3c(c2)CC(CCN)C(=O)N3)oc2ccccc12.Cl (stereo not drawn) | broth microdilution | KB304 |  | 64 µg/mL
Cc1cc(NS(=O)(=O)c2ccc(N)cc2)no1 | broth microdilution | NCTC 13424 | 20 h, ambient air | > 512 µg/mL
CC(NCCC(c1ccccc1)c1ccccc1)c1ccccc1 (stereo not drawn) | broth microdilution | ATCC 17978 |  | 8 µg/mL
CNC(C)C1CCC(N)C(OC2C(N)CC(N)C(OC3OCC(C)(O)C(NC)C3O)C2O)O1 (stereo not drawn) | broth microdilution | BNCC 194496 |  | 4 µg/mL
CC(C)(CN)CNCc1nc2ccccc2n1CCOc1ccccc1 |  | ATCC 17961 |  | 32 µg/mL

Repeated from above:
SMILES | test | system | setting | MIC
CCN1CCN(C(=O)N[C@@H](C(=O)N[C@@H]2C(=O)N3[C@@H]2SC(C)(C)[C@@H]3C(=O)O)c2ccccc2)C(=O)C1=O | broth microdilution |  | 24 h, 37 °C, clinical isolate | > 400 µM
C[C@@H](O)[C@H]1C(=O)N2C(C(=O)O)=C(S[C@@H]3CN[C@H](C(=O)N(C)C)C3)[C@H](C)[C@H]12 |  | clinical isolate 1A3 |  | 96 µg/mL
CC[C@H]1OC(=O)[C@H](C)[C@@H](O[C@H]2C[C@@](C)(OC)[C@@H](O)[C@H](C)O2)[C@H](C)[C@@H](O[C@@H]2O[C@H](C)C[C@H](N(C)C)[C@H]2O)[C@](C)(O)C[C@@H](C)C(=O)[C@H](C)[C@@H](O)[C@]1(C)O | broth microdilution | ATCC 17978 |  | 20 µM
CO[C@H]1/C=C/O[C@@]2(C)Oc3c(C)c(O)c4c(O)c(c(/C=N/N5CCN(C)CC5)c(O)c4c3C2=O)NC(=O)/C(C)=C\C=C\[C@H](C)[C@H](O)[C@@H](C)[C@@H](O)[C@@H](C)[C@H](OC(C)=O)[C@@H]1C | broth microdilution | ATCC 17978 |  | 5 µM
CNC(C)C1CCC(N)C(OC2C(N)CC(N)C(OC3OCC(C)(O)C(NC)C3O)C2O)O1 (stereo not drawn) | broth microdilution | BNCC 194496 |  | 4 µg/mL
